{"data": "Experimental data collected from several papers", "note": "A part holds a random share of what one study measured."}
{"data": "Sample 1", "target": "Fragile X messenger ribonucleoprotein 1, C-terminal low-complexity region (Fmr1, Mus musculus, UniProt P35922)", "method": "RNA Bind-n-Seq", "form": "RNA", "medium": "in vitro", "concentration": "200 nM", "setting": "whole 134-nt RNA, ends assumed", "together with": "150 mM KCl", "relative to": "input library", "direction": "higher = stronger binding", "all sequences stand within": "GGGAGUUCUACAGUCCGACGAUC … UGGAAUUCUCGGGUGUCAAGG"}
{"Sequence": "CCUCAAGUCCUGUGCUACACAUCGUAUGUACCGAAUCGGGCGGGCGGGCGGGGAAAGUAUUAUGUUACGCCGUUCGGAUCUGCACUUCCA", "log2 enrichment": 0.852}
{"Sequence": "GUCCUGUGCUACACAUCGUAUGUACCGAAUCGGUUUUUUGGUUUUUUGGGGUUUUUUGGAAAGUAUUAUGUUACGCCGUUCGGAUCUGCA", "log2 enrichment": -0.513}
{"Sequence": "UAACUUUAGAGGAGGUUCUGAUGGAUAUGGCAGUGGACGUGGAUUUGGGGAUGGCUAUAAUGGGUAUGGAGGAGGACCUGGAGGUGGCAA", "log2 enrichment": 0.452}
{"Sequence": "CAAGUCCUGUGCUACACAUCGUAUGUACCGAAUCGGUUUUUUUGGAAAAAGGAGGAAAGUAUUAUGUUACGCCGUUCGGAUCUGCACUUC", "log2 enrichment": -0.699}
{"Sequence": "UGGGGACAAGCUGACAGCAGCCAUGGCGAGCGGCAGUGGAGACAGCGUCACCCGUCGGAGCGUGGCAUCACAGUUUUUCACUCAAGAGGA", "log2 enrichment": -1.42}
{"Sequence": "UGGCCCUGGUGGCAUGCGGGGAGGAAGAGGUGGCCUCAUGGAUCGUGGUGGUCCCGGUGGAAUGUUCAGAUGUGGCCGUGGUGGAGACAG", "log2 enrichment": 0.216}
{"Sequence": "CUCAAGUCCUGUGCUACACAUCGUAUGUACCGAAUCGGUGGAAAGGUUUUUGGAAAGUAUUAUGUUACGCCGUUCGGAUCUGCACUUCCA", "log2 enrichment": -0.191}
{"Sequence": "UGGUUAGUCAACUACUUUGGUUCCUUAUCAGUAGAAGACUCCCUAGAAUGUCUCAGAGCCAUGCUGUCUGCCAACAUCCGUCAGAAUCUG", "log2 enrichment": -0.144}
{"Sequence": "UGGGAGGUGGAUUUUGUUUAUUUUUUUAGCUCAUUUCCAGGGGUGGGAAUUUUUUUUUAAUAUGUGUCAUGAAUAAAGUUGUUUAUGAAA", "log2 enrichment": 0.251}
{"Sequence": "ACCAUGCAGGUGGGCAUCUUUGGGAAGUGGGGCAAGGGGGGGAUAGGGAGGAGGGUAACACUUUGGGAACAGGUGGUCCCAGGUCGUUUC", "log2 enrichment": 0.812}
{"data": "Sample 2", "target": "Interferon regulatory factor 5, full length, phosphomimetic (IRF5, Homo sapiens, UniProt Q13568-2, residues 1-514, S451D/S453D/S456D/S462D)", "method": "protein-binding microarray", "form": "double-stranded DNA, one strand shown", "medium": "in vitro", "concentration": "940 nM top", "setting": "60-bp whole probe", "together with": "salmon DNA 0.4 mg/ml", "relative to": "random background probes", "direction": "higher = stronger binding", "all sequences stand within": "GCCTAGCAC … GTCTTGATTCGCTTGACGCTGCTG"}
{"Sequence": "TGTTTTTGCTTTCTTTATGCGTGCTAG", "fitted relative affinity [z-score]": 2.23}
{"Sequence": "TTAGGTATCCTTATCCTTTTGTGCTAG", "fitted relative affinity [z-score]": 0.541}
{"Sequence": "GGCGATATCAGACTGGAGACGTGCTAG", "fitted relative affinity [z-score]": -0.936}
{"Sequence": "TTAGGTTTCGGGACTCGGTTAGTGCTA", "fitted relative affinity [z-score]": 7.91}
{"Sequence": "GACGGTTTCGGTTCCAGGACGTGCTAG", "fitted relative affinity [z-score]": 12.1}
{"Sequence": "GAATGTTTTTCATTGTTTTTGTGCTAG", "fitted relative affinity [z-score]": 0.933}
{"Sequence": "TTAGGTTTCGAATATCGGTTAGTGCTA", "fitted relative affinity [z-score]": 6.73}
{"Sequence": "GAGGATTTCAGTCTCGAGACGTGCTAG", "fitted relative affinity [z-score]": 1.62}
{"Sequence": "TTAGGTCTCCTTCTCCTCTAGTGCTAG", "fitted relative affinity [z-score]": 0.38}
{"Sequence": "GCACGGCTCGTTATCCTATAGTGCTAG", "fitted relative affinity [z-score]": -0.242}
{"Sequence": "TCACCAATCAGGACTCAGACTGTGCTA", "fitted relative affinity [z-score]": -0.0328}
{"Sequence": "GACGATTTCGGGTTGCGAGACGTGCTA", "fitted relative affinity [z-score]": 0.661}
{"Sequence": "CACGATCTCAGACTGGAGACGTGCTAG", "fitted relative affinity [z-score]": -0.371}
{"Sequence": "TCACTCTTCTGCTTCCTACTGTGCTAG", "fitted relative affinity [z-score]": 1.74}
{"Sequence": "TTAGGACTGGCCTTTCGGTTAGTGCTA", "fitted relative affinity [z-score]": 0.267}
{"Sequence": "GACGGACTGGGTTTCGGGGCGTGCTAG", "fitted relative affinity [z-score]": 2.3}
{"Sequence": "TTGGGTATCGGTCTCGGTTAGTGCTAG", "fitted relative affinity [z-score]": 8.35}
{"Sequence": "TCATTATTAGTGACTCAGACTGTGCTA", "fitted relative affinity [z-score]": 0.0925}
{"Sequence": "TCAGATGCCTTTCTCTTACTGTGCTAG", "fitted relative affinity [z-score]": 0.621}
{"Sequence": "GCCTCTAGGTTTTCTGGAGACGTGCTA", "fitted relative affinity [z-score]": -0.337}
{"Sequence": "GACGAACTGGCGACTGGAGACGTGCTA", "fitted relative affinity [z-score]": -0.513}
{"Sequence": "TGGCCTGTGCTATTTATAAGGGTGCTA", "fitted relative affinity [z-score]": 0.196}
{"Sequence": "TTAGGTCTCCTATTCCTTTAGTGCTAG", "fitted relative affinity [z-score]": 0.0324}
{"Sequence": "GACCTCGTCTCTATCAAAAAGTGCTAG", "fitted relative affinity [z-score]": 0.63}
{"Sequence": "TTAGGACTGAGACTGGGTTAGTGCTAG", "fitted relative affinity [z-score]": -0.56}
{"data": "Sample 3", "target": "RING finger protein unkempt homolog, zinc fingers 1-6, GST-SBP tag (UNK, Homo sapiens, UniProt Q9C0B0, residues 30-357)", "method": "RNA Bind-n-Seq", "form": "RNA", "medium": "in vitro", "concentration": "not given", "setting": "RNA with constant flanks, human-mouse chimeric sites, ends assumed", "relative to": "input RNA pool", "direction": "higher = stronger binding", "all sequences stand within": "GGGAGUUCUACAGUCCGACGAUC … CAACAGAGGAUUGAGCAUCA", "sequence of UniProt Q9C0B0 (30-357, looked up)": "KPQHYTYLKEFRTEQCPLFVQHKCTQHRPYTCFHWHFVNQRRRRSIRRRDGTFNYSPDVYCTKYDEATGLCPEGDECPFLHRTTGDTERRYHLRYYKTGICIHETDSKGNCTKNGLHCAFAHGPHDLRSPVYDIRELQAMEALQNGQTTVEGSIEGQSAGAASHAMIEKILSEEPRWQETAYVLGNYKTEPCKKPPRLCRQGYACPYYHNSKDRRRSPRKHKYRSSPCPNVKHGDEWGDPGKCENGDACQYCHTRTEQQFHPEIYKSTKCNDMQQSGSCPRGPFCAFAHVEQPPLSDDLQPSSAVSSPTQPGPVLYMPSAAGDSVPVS"}
{"Sequence": "CUCGGCACCGGCACGCUUUACAUCGCGGAGAGCCGCCUGUCCUGGUUAGAUGGCUCUGGAUUAGGAUUCUCACUGGAAUACCCCACCAUUAGUUUACAUGCAUUAUCCAGGGAUCCAAAC", "bound/input enrichment": "2.05 ratio"}
{"Sequence": "GGAAGUACAUUAAUGGAGAUUGAUGGUGACAAAGGCAAGCAGGGCGGGCCCACCUACUACAUAGACACUAAUGCUCUCCGCGUGCCCAGGGAGAACAUGGAGGCCAUCUCACCACUCAAG", "bound/input enrichment": "0.559 ratio"}
{"Sequence": "UUCUAGUAUGAUGGUGAUAUUGGCAAUUAUUAUUAUGGCCAGGGUCAUCCCAUGAAGCCUCAUAGAAUCCGGAUGACUCAUAACUUGCUGCUAAAUUAUGGCUUAUACCGAAAAAUGGAA", "bound/input enrichment": "0.212 ratio"}
{"Sequence": "CCCUCCCGGGCCACCCAACCCCUCCCGGCUCCCCGCCGAGAUCCAGGUUUCUUCUUAUUUCAUAGCAAAUAAGAAAAAUGUUCUACGCACAUUUUGUUCUCAGUAAACGAGGGCCUCUGG", "bound/input enrichment": "0.328 ratio"}
{"Sequence": "CACAGAGGAGAUCUGCUGUUCCUCACGAAUUUCCGGGAGGACCCCAUCAGAGCUGGUGAAAUAGUUGUUUUUAAGGUUGAAGGAAGAGACAUUCCAAUAGUUCACAGAGUAAUCAAAGUU", "bound/input enrichment": "3.22 ratio"}
{"Sequence": "GGACCAUAAUCAUGGAGGACAUAAUGCACUUGCCCAGAGCGCGCGUCAACGCCAGCAUGUUACCACAGUAUAUCGACCGGCCCGUGUGCUUCGUGGGGAAGCUGGAAAAGAUUCAUCCCA", "bound/input enrichment": "0.116 ratio"}
{"Sequence": "UCUUAACUUAUUCAUUUAACUUAUUUUUAUAGCUAGAUAAAUAUUGUUAGUCUUAGACAAUAGCUCACAUCUUUACAGAAGCAUGCCCUCCCUGUCCAUUUGUCUUAUAACAUGACCCAG", "bound/input enrichment": "6.2 ratio"}
{"Sequence": "AUGGAACAUUUUGAUGCGUCACUCAGUACCUAUUUCAAGGCCUUCCUAGGCCCUCGAGAUACAAGAGUCAAAGGAUGGUUCCUCCUGGACAAUUACAUCCCUACGUUUGUCUGUUCUGUU", "bound/input enrichment": "0.108 ratio"}
{"Sequence": "GUUCGGCUCUGGGAUCAUGCCACAAUGACAGAAGUGAAAUCUCUGAAUUUUAAUAUGUCUGUUAGCAGCAUGGAGUAUAUUCCUGAGGGAGAGAUUUUGGUUAUAACUUAUGGACGAUCU", "bound/input enrichment": "0.445 ratio"}
{"Sequence": "AAAUUUCCCCUCCUGAGACCUCCUCCGAAGUUGGAGUCUCUUAUAGAUGCCUCAUCCCCUGUUAGCGUUUUAGUUUGGACCACCCAGCCUUGGACAAUUCCCGCCAACCAGGCAAUUUGC", "bound/input enrichment": "1.13 ratio"}
{"Sequence": "AUUGUUGAAGCGAAUCCACUCCUAGAAGCAUUUGGAAAUGCGAAGACUGUUCGCAACAAUAAUAGCAGUCGAUUUGGAAAAUUUGUAGAAAUUCAUUUCAAUGAAAAGAGUUCGGUUGUU", "bound/input enrichment": "0.304 ratio"}
{"data": "Sample 4", "target": "RNA binding protein fox-1 homolog 2, RRM domain, GST-SBP tag (RBFOX2, Homo sapiens, UniProt O43251-10, residues 100-194)", "method": "RNA Bind-n-Seq", "form": "RNA", "medium": "in vitro", "concentration": "365 nM", "setting": "natural RNA segment, single round, ends assumed", "relative to": "no-protein control", "direction": "higher = stronger binding", "all sequences stand within": "GGGAGUUCUACAGUCCGACGAUC … UGGAAUUCUCGGGUGCCAA", "Target sequence (chain)": "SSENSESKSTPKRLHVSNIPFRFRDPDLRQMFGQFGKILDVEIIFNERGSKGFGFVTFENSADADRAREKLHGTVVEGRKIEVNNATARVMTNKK"}
{"Sequence": "CCAAAGACAGUCUCAGAAAGCUGCACUGCCCACCGGCUCAGCUUUCAUUCAAAAAGGCUUCCAAGGCCAAUUCUGUCUUGAAGUCAAUGCAUGUAUUUACUGUUUGACAG", "RBNS enrichment (R)": 6.53}
{"Sequence": "AACGAUAACAUUUUAAGGACUAAUAUUGCUGAUACUUGAAUAAUCAAUCUCUACUAGGUUAUAAGUAGUAUACACAGAUUUACCCUGCCCUUGAACUUGAAGGACAUUAA", "RBNS enrichment (R)": 0.294}
{"Sequence": "CUUAUUUUUUUAAAUAAGUUUUUAGGUCCUGACACUGACAUCAAAUACAUGCACACCAGAAAGGCAUUUCCACCACCGUCCCCACUCAUUAGCGUCCAGAGUGCCUUUCU", "RBNS enrichment (R)": 0.46}
{"Sequence": "GUGUUUUACUGGAAAAGCUGCAGUUGAUCUCAAAUUGAGCAGCGAGCUUUCAUGCUCAGUUGGAAUCUAAUGAAAUAAAUUCUCUUAGCAUACAUUGUAAAUUUGUAUUG", "RBNS enrichment (R)": 0.267}
{"Sequence": "CCAUGUUUGCUCUAAAUUAAGACAGCAUUGAUCUCCUGGAGGCUGGUUCUGCUGCCUCUACACAGGGGCCCUGUACAGUGAAUGGUGCCAUUUUCGAAGGAGCAGUGUGA", "RBNS enrichment (R)": 0.474}
{"Sequence": "GAGACACCCACCAUGGGUCUUUGAUGCUAGAUAAGCCUAGAGGGAAGAUAAAGGGGCAGGAUCAAGGCUUUGUUUGAUCAUUGACCUACCCCCCCCCUCAGGUAGAUUCC", "RBNS enrichment (R)": 0.717}
{"Sequence": "UUCCCCCGACUUUCCUCUGGGAUAUAAAAAAGGGGGUAAGGGGGCAAAGAGAGCCCUCUGGGCCUCUCCUCCCAUACACACUACACUGCCCCUUCUCCCCCCAUCAAAAC", "RBNS enrichment (R)": 0.63}
{"Sequence": "CAGCUGAGGCCCAGGGCCUUGCUCCCUGGGAAAUUCUCUUCUCUCCAUCUUUCGGUGCAUUGGCCAUGUUACUGUGCCAAAGUGUCUUAAUUCUUGUCCCAUCUAUUCUC", "RBNS enrichment (R)": 0.308}
{"Sequence": "CAGACUUCUGCCCGCUUGGGACAGAACAUUGCAUGUGAGGUGGGAUUAUCAAGUUUCAAAGACCUGUGUCAACCAUACAGCAAAGGCAGACCCCAUAACGACGUCCCACA", "RBNS enrichment (R)": 1.86}
{"Sequence": "UAUCCAUGCUAGAACCAUGGUAUCCCAUGGGAAGCAGACAGCAGGCAAGGAGAGGCGUGGACACCGGCCACAGGUGUGCCCGAGCCCCAUCCUACCUGAGUCUCUGUCUC", "RBNS enrichment (R)": 0.322}
{"Sequence": "CUUUUUUCCCUAUUUUCCACCCCAGUCGCUCCUUACCGUGACUCCUGCCCUUGGAGGGCAUGUAGCAGUGUCUGUCCUGCCAGUCCCAAGGCCCUGUGGGAGGAGACUGG", "RBNS enrichment (R)": 0.477}
{"Sequence": "UUGUCAUUGUUCCAAAUUUCCAGAAUAGAAUAUAGGACCAGUUUAGAUCCUGUAGUAAACAUGUCCCAUCUAUGACUGCCUUGAUUAUAGAGGCAAGGGGUUACUGUGUG", "RBNS enrichment (R)": 0.477}
